{"data": "Results pooled from the literature", "note": "A part holds a random share of what one study measured."}
{"data": "Series 1", "target": "Interferon regulatory factor 7, full length, phosphomimetic (IRF7, Homo sapiens, UniProt Q92985, residues 1-503, S471D/S472D/S475D/S476D/S477D/S483D/S484D/S487D)", "technique": "protein-binding microarray", "molecule type": "double-stranded DNA, one strand shown", "sample": "in vitro", "concentration": "2200 nM top", "notes": "60-bp whole probe", "added": "salmon DNA 0.4 mg/ml", "reference": "random background probes", "reading": "higher = stronger binding", "shared flanks, not repeated": "GCCTAGCAC … GTCTTGATTCGCTTGACGCTGCTG", "Construct (chain)": "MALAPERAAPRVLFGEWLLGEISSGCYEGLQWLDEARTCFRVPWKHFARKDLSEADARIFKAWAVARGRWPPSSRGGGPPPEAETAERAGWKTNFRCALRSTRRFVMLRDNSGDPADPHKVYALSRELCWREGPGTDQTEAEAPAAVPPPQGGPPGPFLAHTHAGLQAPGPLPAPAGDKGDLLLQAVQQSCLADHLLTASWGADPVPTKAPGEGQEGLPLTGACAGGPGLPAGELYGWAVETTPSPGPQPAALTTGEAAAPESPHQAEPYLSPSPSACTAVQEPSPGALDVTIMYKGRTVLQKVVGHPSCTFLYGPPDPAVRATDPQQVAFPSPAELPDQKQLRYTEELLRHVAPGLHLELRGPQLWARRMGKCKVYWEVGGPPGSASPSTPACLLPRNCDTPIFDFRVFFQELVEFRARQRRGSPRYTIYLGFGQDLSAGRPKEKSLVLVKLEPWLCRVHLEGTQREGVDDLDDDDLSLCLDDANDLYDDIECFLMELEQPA"}
{"Strand": "GACGATATCGGGTTTCGAAACGTGCTA", "fitted relative affinity [z-score]": 1.96}
{"Strand": "ATAGATATCGGGTATCGATTAGTGCTA", "fitted relative affinity [z-score]": 0.255}
{"Strand": "GACGGTGTCGGGTTTCGGGACGTGCTA", "fitted relative affinity [z-score]": 0.562}
{"Strand": "GACTGACTGCTTATCCTGACGTGCTAG", "fitted relative affinity [z-score]": 0.713}
{"Strand": "GAGGGTTTCGGACTGGGGACGTGCTAG", "fitted relative affinity [z-score]": 1.65}
{"Strand": "TGGGCTACCTCTCTTAGAATGTGCTAG", "fitted relative affinity [z-score]": -0.482}
{"Strand": "AGTGGTATAGCACTAAGGGAGTGCTAG", "fitted relative affinity [z-score]": -0.596}
{"Strand": "CAAGTTTCTCCTTTCGGAATGTGCTAG", "fitted relative affinity [z-score]": 6.06}
{"Strand": "TCACATTTATATCTTTGACTGTGCTAG", "fitted relative affinity [z-score]": 1.42}
{"data": "Series 2", "target": "Centromere-binding protein 1, full length, His-tagged (CBF1, Saccharomyces cerevisiae, UniProt P17106, residues 1-351)", "technique": "competition protein-binding microarray", "molecule type": "double-stranded DNA, one strand shown", "sample": "in vitro", "concentration": "2 µM", "notes": "whole 60-bp probe, lowest competitor level", "added": "Pho4 competitor, 0.05 µM", "reading": "higher = stronger binding", "shared flanks, not repeated": "… GTCTTGATTCGCTTGACGCTGCTG", "sequence of UniProt P17106 (whole entry, looked up)": "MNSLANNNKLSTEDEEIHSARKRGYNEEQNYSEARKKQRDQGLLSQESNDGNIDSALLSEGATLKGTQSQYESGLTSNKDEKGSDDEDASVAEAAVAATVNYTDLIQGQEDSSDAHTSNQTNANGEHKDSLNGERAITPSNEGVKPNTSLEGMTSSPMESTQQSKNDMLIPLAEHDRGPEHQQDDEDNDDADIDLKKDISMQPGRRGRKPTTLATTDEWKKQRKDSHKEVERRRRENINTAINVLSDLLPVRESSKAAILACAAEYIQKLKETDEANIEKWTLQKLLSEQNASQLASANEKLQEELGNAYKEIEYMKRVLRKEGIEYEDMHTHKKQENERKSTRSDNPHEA"}
{"Strand": "AAAGCGGTAATTTGTCTGGTGGGTGCAGATATCTAT", "fluorescence intensity": "90 a.u."}
{"Strand": "GTATGCACCATCTTTCATGTGGGAAATAAGCTTTTT", "fluorescence intensity": "84.1 a.u."}
{"Strand": "TCAGATGCGCTGATGGGCGTGCTTTACACCCATCAG", "fluorescence intensity": "64.1 a.u."}
{"Strand": "AAATTACTAAGTTGTATAGTGGGTGACGCCGTATGA", "fluorescence intensity": "60.2 a.u."}
{"Strand": "TTGGTAGAGGCGGTTCCCGTGGTGATGCTCGCGGTG", "fluorescence intensity": "77.1 a.u."}
{"Strand": "CCATTGGTGTACCGTCACGTGCTAAGGTTCTGCTGT", "fluorescence intensity": "5140 a.u."}
{"Strand": "AGATTGCCTCCCTGACATGTGGTGGCAGAAAACCTG", "fluorescence intensity": "105 a.u."}
{"Strand": "CTAACGAAGGTTTGGTGGGTGGGTGACAAGCCAAGT", "fluorescence intensity": "65.6 a.u."}
{"Strand": "AGCTGGGACTATAGGCACGTGCCACCACACCCAGCT", "fluorescence intensity": "2100 a.u."}
{"Strand": "CAGAACTAGATGGCGCTCGTGATTGTGAAAACGGGG", "fluorescence intensity": "318 a.u."}
{"Strand": "CATACCCAACCTTACCACGTGTTTTAAGATATTTGT", "fluorescence intensity": "1640 a.u."}
{"data": "Series 3", "target": "Fragile X messenger ribonucleoprotein 1, C-terminal low-complexity region (Fmr1, Mus musculus, UniProt P35922)", "technique": "RNA Bind-n-Seq", "molecule type": "RNA", "sample": "in vitro", "concentration": "200 nM", "notes": "whole 134-nt RNA, ends assumed", "added": "150 mM KCl", "reference": "input library", "reading": "higher = stronger binding", "shared flanks, not repeated": "GGGAGUUCUACAGUCCGACGAUC … UGGAAUUCUCGGGUGUCAAGG"}
{"Strand": "CCUGUGCUACACAUCGUAUGUACCGAAUCGGCCCCCCCGGGCCCCCCCGGGCCCCCCCGGAAAGUAUUAUGUUACGCCGUUCGGAUCUGC", "log2 enrichment": -0.171}
{"Strand": "GCAGGAAGUAAAAACAAAUGGAAAUGCUUCGGAUAGUGGCAGGGGUGGGGGUUGCUAAGGAAAGGGUGGGAUGGGAGUGGGUAAAGAGGU", "log2 enrichment": 0.0872}
{"Strand": "GCAGGAAGUAAAAACAAAUGGAAAUGCUUCGGAUAGUGGCAGGGGUGGGGGUUGCUAAGGAAAGGGUGGGAUGGGAGUGGGUAAACAGUU", "log2 enrichment": -0.165}
{"Strand": "UGCUAGGACUUGAUGGAUCACUAGUUUUUCUGGUAAGUAAAACUAAUUUUUUUUUUUUUUUUUUGAGACGGAAUCUCACUCUGUCACCCA", "log2 enrichment": 0.594}
{"Strand": "UCCUGUGCUACACAUCGUAUGUACCGAAUCGGGGUUUUUUGGUUUUUUGGGUUUUUUGGGAAAGUAUUAUGUUACGCCGUUCGGAUCUGC", "log2 enrichment": -0.0425}
{"Strand": "GCAGGAAGUAAAAACAAAUGGAAAUGCUUCGGAUAGGGGCAGGGGUGGGGGUUGCUAAGGAAAGGGUGGGAUGGGAGUGGGUAAAGAGUU", "log2 enrichment": 0.674}
{"Strand": "AGUCCUGUGCUACACAUCGUAUGUACCGAAUCGGAAAGGUUUUUUUGGAAAAAAAGGAAAGUAUUAUGUUACGCCGUUCGGAUCUGCACU", "log2 enrichment": -1.3}
{"Strand": "CACAGACAACACGCACCCACACAGACACAGAGGGAAGGGGUUGGGAUGGGGACAGGGAAAACAGCAGGGCGGGGUAGGACCCCAGCCCCU", "log2 enrichment": 0.956}
{"Strand": "UCCUGUGCUACACAUCGUAUGUACCGAAUCGGGGUUUUUUUGGGGAGGGGUUUUUGGGGAAAGUAUUAUGUUACGCCGUUCGGAUCUGCA", "log2 enrichment": 0.767}
{"Strand": "GAGGGAGUUUGCAGAUACCUCAGGAUUCGUGACAAUGCCUUUAAAGAUCCAGGAGAGAUGUUCAGCUACUAGGAACUGCUAGCAAGUAUA", "log2 enrichment": -0.2}
{"data": "Single results of other studies"}
{"Molecule": "PhoQ, residues 284 288 289 292 302 303 GASLAW", "target": "PhoP, residues 12 14 15 18 19 LHHSG (Escherichia coli, UniProt P23836)", "assay": "Sort-seq, refers to: YFP reporter", "system": "E. coli", "setting": "PhoQ-PhoP variant library, added: 10 µM Mg2+", "how to read": "reference: high Mg2+ state, higher = stronger signaling", "measurement": "fold induction", "value": 20.2}
{"note": "Repeated from above (series 1):"}
{"Strand": "AGTGGTATAGCACTAAGGGAGTGCTAG", "fitted relative affinity [z-score]": -0.596}
{"Strand": "CAAGTTTCTCCTTTCGGAATGTGCTAG", "fitted relative affinity [z-score]": 6.06}
{"Strand": "TCACATTTATATCTTTGACTGTGCTAG", "fitted relative affinity [z-score]": 1.42}
